# Assay results of several laboratories.
# Numbered parts are unrelated; each lists some results of a single study.

# Block 1 — method: universal PBM; form: double-stranded DNA, one strand shown; sample: in vitro; concentration: not given; direction: higher = stronger binding
# Target: Sal-like protein 4, full length isoform B (SALL4, Homo sapiens, UniProt Q9UJQ4-2, residues 1-616)
# Setting: 8-mer, flanks averaged, mean of replicates
# Target sequence (chain): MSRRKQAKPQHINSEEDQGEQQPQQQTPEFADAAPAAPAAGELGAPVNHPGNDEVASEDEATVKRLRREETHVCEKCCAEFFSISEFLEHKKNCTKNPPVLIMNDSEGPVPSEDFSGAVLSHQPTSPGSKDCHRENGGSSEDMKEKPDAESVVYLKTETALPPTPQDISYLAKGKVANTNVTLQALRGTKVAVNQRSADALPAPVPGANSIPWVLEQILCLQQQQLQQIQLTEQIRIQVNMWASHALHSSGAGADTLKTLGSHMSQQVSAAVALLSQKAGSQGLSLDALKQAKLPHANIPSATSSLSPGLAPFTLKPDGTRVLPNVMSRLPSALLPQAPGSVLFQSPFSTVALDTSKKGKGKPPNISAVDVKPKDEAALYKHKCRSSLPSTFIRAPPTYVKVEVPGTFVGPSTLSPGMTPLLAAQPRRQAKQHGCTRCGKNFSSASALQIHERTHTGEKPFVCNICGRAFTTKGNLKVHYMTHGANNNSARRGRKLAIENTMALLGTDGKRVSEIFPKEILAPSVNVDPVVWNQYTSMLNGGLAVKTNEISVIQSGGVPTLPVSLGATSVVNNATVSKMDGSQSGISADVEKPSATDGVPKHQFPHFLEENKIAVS
Oligonucleotide,E-score
CAACCAGA,-0.0782
GAACGCCA,-0.2
AGGTACCT,-0.147
TCGCTGCA,-0.116
CAGAGCTC,-0.211
GAAGGAGA,0.0867
AAGAAACT,0.0462
AGATCGGA,0.0409
AACGCGCA,-0.0611
GATGCGGA,-0.26
CACTCTTC,-0.0465

# Block 2 — method: protein binding microarray; form: double-stranded DNA, one strand shown; sample: in vitro; concentration: not given; baseline: not given; direction: higher = stronger binding
# Target: Histone acetyltransferase KAT6A, winged helix 1, GST fusion (KAT6A, Homo sapiens, UniProt Q92794, residues 1-85)
# Setting: 8-mer, flanks averaged, mean of 2 arrays, mostly near background
# Residues (chain): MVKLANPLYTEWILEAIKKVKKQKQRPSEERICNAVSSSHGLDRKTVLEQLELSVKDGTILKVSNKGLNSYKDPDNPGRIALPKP
Oligonucleotide,E-score
AGGTTTAA,-0.14
TAGATAGA,-0.165
CCCGAACC,0.0867
CGAAGCCA,-0.0722
CCCATACA,-0.167
GACGCGGC,0.382
GCGAGAAC,0.117
GAAAGCGC,0.409
ACCACGGA,0.179
AACTAGAC,-0.0732

# Block 3 — method: RNA Bind-n-Seq; form: RNA; sample: in vitro; concentration: 365 nM; baseline: no-protein control; direction: higher = stronger binding
# Target: RNA binding protein fox-1 homolog 2, RRM domain, GST-SBP tag (RBFOX2, Homo sapiens, UniProt O43251-10, residues 100-194)
# Setting: natural RNA segment, single round, ends assumed
# Residues (chain): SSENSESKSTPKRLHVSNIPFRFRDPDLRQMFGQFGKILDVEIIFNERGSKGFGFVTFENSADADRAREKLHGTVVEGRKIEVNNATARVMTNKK
Oligonucleotide,RBNS enrichment (R)
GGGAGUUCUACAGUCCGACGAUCGAUUCACUCGUGUGCACGGAGGGGGUGCUCCAGAUGGGAAUCACACAGGGCUUUCUUCACUCUUGGUCUUCGUUUCUGAUCAAGUAAACACCAGCAGUUGUCAUUCAGUGUGGAAUUCUCGGGUGCCAA,0.57
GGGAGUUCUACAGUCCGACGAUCGCCUCCUCCAUCAGAUGCCUGGGCCUCCUCCAUCAGAUGUCUGGGCCUCCUCCAUCAGAUGCCUGGGCCUCCUCCAUCAGAUGUCUGGGCCUCCUCCAUCAGAUGUCUGGUGGAAUUCUCGGGUGCCAA,0.305
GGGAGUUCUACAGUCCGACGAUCACUUUUUAUUCUUUAUCAUAGCUAAGUAAAUACCAAAAAAAAAAAAAAGCUUUGUAGGACACUUGUACUUAGUUUGGGAAAAAAAAAUAAAUUGAAAUUGUUAUGCUUUUUGGAAUUCUCGGGUGCCAA,0.629
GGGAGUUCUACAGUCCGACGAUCUCUUGAGCUGGUCUCCUGCCUCCACCCCCUGAGUGCUGGGGUUACAGGUGAUAGCUGGUCUCCUGCCUCCACCUCCUGAGUGCUGGGGUUACAGGUGAUCGCUGGUCUCCUGGAAUUCUCGGGUGCCAA,0.253
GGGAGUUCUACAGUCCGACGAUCCUUGACAAAGUCCCAAGUGCUCAGGACUUUUAGCCCUGUCUACUUUGGCUUGGUUUGGAUGAUUCUUAAGUUUAUUAGCCUAGUGAUGGCCAAAAAGUACUUGACUUAAGUGGAAUUCUCGGGUGCCAA,0.262
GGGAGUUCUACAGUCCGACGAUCGAGGAACACAACAUUAAGCCAUUAGAAUAGAAGAGCUGUUGUCUCCUGUUUCUCUAACACUAACAUGGAUAACCUAAGGGAAGUGCCAGCCGCUGUUGGCAGGGUAUUAAUGGAAUUCUCGGGUGCCAA,0.586
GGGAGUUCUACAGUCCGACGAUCCAUCCUCCAUAUAAUCAUCUUUGUUAUUCGUGGGGGUUUAAUUACAUUACAAGUGGCCAAAACCCCUGUUCUCAGUGAAGAACCACAUUGGAUUUGUAUUCUGUUCAGUUUGGAAUUCUCGGGUGCCAA,0.288

# Block 4 — method: aptamer microarray, sandwich; form: DNA with 2'F-ANA; sample: in vitro; concentration: 200 nM; together with: Cy3 exosite-II aptamer, 400 nM; direction: higher = stronger binding; oligonucleotide: GGTTGGTGTGGTTGG
# Target: Prothrombin, mature alpha-thrombin (F2, Homo sapiens, UniProt P00734)
# Setting: whole 15-mer aptamer, many near background
Modification,mean fluorescence intensity
2'F-ANA at 3 4 6 7 8 9 10 13,250 a.u.
2'F-ANA at 2 3 4 5 10 11 15,52.1 a.u.
2'F-ANA at 1 3 4 5 8 9 11 12 15,88.8 a.u.
2'F-ANA at 4 5 8 10 12 13 14 15,61.1 a.u.
2'F-ANA at 1 3 4 6 7 8 9 10 15,67.3 a.u.
2'F-ANA at 1 5 8 9 10 11,53.6 a.u.
2'F-ANA at 4 5 6 7 8 9 10 11 12 13,47.7 a.u.
2'F-ANA at 1 4 5 6 7 9 14,45.3 a.u.
2'F-ANA at 1 3 4 7 8 9 12 14 15,89.6 a.u.
2'F-ANA at 3 4 5 6 8 9 10 13 14 15,45.5 a.u.
2'F-ANA at 2 4 5 7 8 10 13 14 15,46.5 a.u.
2'F-ANA at 1 4 7 11 12,261 a.u.
2'F-ANA at 2 3 6 7 8 11 12 14,440 a.u.
2'F-ANA at 2 4 8 12 13 14 15,124 a.u.
2'F-ANA at 1 2 5 6 9 11 12,91.7 a.u.
2'F-ANA at 1 2 4 6 7 8 9 10 13,47 a.u.

# A few entries again (block 1):
Oligonucleotide,E-score
GAAGGAGA,0.0867
AAGAAACT,0.0462
AGATCGGA,0.0409
AACGCGCA,-0.0611
